Published values from different studies.
Lines come from different studies, so protocols differ. Numbers after ± are the reported error.
RASA1 SH2 domains: Ras GTPase-activating protein 1, SH2 domains (RASA1, Homo sapiens, UniProt P20936)
Sequence of UniProt P20936 (whole entry, looked up): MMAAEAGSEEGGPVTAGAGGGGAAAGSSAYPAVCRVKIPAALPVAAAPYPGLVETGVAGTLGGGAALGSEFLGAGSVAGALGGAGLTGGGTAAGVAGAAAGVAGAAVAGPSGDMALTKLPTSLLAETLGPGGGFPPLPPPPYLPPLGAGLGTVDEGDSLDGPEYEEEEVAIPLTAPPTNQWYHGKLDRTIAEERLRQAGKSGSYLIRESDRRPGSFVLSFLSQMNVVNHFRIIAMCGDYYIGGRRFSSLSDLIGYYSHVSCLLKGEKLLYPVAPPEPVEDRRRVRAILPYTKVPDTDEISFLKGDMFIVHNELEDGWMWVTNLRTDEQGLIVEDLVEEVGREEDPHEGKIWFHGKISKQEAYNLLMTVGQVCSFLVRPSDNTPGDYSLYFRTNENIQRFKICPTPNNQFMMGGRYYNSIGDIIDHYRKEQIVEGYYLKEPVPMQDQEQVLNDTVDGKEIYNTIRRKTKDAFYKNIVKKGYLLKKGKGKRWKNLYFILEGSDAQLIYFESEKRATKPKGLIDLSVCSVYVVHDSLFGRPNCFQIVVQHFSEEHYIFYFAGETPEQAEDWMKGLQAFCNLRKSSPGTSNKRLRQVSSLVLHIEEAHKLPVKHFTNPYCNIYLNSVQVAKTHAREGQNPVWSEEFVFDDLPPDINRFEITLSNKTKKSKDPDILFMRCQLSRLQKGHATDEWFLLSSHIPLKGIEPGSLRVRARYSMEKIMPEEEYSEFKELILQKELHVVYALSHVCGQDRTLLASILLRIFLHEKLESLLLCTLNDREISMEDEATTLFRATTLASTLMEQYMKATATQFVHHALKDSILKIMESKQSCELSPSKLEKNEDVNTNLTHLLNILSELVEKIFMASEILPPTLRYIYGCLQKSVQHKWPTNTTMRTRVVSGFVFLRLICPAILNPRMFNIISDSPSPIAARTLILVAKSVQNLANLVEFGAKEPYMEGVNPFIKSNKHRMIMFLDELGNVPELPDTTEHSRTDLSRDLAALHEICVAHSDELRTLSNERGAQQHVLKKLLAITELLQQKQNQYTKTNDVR
STAT1 SH2 domain: Signal transducer and activator of transcription 1-alpha/beta, SH2 domain (STAT1, Homo sapiens, UniProt P42224)
Sequence of UniProt P42224 (whole entry, looked up): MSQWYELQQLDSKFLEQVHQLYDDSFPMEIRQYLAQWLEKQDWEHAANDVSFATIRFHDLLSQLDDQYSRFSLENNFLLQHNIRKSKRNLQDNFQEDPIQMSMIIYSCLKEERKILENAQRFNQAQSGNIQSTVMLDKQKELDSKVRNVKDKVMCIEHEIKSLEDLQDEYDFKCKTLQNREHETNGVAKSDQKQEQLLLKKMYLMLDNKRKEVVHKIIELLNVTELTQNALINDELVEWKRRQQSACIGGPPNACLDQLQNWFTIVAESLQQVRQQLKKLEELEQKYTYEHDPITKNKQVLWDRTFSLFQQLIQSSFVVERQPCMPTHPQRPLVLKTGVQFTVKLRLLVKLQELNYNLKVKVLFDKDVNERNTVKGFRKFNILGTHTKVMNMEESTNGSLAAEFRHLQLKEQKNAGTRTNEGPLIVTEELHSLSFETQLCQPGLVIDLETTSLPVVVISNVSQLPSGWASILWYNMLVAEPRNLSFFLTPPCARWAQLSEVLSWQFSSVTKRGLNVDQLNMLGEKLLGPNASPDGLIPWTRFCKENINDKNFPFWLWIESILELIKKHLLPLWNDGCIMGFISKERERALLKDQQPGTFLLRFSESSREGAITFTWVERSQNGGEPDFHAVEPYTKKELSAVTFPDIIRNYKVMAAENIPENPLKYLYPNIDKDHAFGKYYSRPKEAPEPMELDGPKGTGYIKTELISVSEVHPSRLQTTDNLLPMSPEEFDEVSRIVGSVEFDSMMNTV
Sequence of UniProt P11142 (whole entry, looked up): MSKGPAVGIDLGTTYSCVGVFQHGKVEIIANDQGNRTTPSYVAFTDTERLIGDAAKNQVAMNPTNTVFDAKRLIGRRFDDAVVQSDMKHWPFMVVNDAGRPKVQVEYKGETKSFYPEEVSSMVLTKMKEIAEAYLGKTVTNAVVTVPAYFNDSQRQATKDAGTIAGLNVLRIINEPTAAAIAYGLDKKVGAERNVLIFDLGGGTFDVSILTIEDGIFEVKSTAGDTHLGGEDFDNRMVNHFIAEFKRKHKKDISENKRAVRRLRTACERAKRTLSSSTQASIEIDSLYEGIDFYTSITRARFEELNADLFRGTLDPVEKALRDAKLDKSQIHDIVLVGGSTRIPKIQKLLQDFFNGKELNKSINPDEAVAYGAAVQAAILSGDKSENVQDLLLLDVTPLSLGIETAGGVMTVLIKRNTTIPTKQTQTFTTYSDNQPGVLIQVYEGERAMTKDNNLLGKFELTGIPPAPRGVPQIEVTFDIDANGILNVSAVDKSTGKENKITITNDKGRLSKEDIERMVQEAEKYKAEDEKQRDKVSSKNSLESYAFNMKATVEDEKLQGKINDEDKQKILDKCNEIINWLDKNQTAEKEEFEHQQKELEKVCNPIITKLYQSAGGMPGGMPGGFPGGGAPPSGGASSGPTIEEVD
Sequence of UniProt P38489 (whole entry, looked up): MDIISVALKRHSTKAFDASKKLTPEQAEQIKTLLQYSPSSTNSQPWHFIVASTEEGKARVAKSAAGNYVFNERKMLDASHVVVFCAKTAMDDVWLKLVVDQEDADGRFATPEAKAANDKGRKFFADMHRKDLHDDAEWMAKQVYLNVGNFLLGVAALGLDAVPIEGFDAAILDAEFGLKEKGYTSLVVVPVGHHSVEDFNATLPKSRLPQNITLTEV
Sequence of UniProt Q9Y5T5 (whole entry, looked up): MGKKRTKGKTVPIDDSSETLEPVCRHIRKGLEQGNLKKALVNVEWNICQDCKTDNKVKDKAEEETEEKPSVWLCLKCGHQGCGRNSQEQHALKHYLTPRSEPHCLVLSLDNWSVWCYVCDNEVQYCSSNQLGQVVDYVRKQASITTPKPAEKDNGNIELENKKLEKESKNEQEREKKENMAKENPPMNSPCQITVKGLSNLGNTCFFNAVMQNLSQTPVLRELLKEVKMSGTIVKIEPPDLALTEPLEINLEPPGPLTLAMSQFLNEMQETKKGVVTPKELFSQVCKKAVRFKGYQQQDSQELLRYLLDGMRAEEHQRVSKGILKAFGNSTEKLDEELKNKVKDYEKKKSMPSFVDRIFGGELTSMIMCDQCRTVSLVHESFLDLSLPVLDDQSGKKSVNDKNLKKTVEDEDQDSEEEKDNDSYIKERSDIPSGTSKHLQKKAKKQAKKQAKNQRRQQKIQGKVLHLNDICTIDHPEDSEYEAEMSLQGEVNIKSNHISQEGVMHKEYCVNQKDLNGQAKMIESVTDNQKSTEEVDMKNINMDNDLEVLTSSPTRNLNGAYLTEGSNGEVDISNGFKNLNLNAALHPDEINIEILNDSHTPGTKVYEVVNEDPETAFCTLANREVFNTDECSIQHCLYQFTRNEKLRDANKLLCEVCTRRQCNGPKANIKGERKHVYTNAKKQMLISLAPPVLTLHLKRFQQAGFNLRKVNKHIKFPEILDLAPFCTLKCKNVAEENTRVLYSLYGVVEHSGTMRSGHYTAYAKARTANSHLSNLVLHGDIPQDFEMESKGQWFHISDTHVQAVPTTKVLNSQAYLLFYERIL
Sequence of UniProt Q9SCZ4 (whole entry, looked up): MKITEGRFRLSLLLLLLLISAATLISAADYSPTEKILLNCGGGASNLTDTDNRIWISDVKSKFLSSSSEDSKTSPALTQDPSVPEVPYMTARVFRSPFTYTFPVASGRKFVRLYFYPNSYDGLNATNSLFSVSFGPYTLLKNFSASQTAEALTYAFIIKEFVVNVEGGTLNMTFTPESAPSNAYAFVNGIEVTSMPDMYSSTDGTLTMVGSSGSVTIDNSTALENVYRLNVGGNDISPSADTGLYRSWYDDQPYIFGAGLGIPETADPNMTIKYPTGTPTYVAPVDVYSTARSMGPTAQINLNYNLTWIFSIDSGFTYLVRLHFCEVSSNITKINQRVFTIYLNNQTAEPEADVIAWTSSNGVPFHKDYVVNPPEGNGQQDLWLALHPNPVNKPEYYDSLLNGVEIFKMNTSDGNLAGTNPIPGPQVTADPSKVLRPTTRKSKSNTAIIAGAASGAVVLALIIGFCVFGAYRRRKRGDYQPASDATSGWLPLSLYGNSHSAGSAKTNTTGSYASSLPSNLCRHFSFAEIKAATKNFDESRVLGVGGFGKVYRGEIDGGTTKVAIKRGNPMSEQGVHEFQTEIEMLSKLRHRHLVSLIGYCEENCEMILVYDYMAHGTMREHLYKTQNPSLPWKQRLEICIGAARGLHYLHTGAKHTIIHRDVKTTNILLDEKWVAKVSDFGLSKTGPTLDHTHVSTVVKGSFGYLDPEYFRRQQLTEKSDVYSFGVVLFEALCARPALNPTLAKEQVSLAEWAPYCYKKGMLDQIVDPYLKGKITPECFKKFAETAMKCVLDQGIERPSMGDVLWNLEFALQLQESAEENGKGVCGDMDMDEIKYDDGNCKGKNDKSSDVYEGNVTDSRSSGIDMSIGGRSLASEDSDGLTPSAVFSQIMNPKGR
Sequence of UniProt P48546 (whole entry, looked up): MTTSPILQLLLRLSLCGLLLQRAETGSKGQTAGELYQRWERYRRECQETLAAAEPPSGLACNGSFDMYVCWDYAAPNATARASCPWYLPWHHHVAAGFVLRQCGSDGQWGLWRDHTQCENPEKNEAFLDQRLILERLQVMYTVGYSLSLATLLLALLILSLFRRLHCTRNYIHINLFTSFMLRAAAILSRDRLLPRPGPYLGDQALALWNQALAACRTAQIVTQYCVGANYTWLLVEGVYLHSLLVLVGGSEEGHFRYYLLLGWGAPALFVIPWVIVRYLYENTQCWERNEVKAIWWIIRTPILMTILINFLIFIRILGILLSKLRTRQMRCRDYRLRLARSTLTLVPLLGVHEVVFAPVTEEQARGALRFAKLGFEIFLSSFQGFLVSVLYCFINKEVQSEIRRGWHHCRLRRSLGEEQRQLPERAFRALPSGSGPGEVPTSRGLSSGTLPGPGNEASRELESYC
Sequence of UniProt Q9NWS0 (1-180, looked up): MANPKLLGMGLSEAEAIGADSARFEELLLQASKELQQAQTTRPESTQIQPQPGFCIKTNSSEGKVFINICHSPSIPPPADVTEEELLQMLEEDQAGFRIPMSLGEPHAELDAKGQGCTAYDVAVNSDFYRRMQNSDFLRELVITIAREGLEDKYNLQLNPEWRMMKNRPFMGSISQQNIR

Structure (SMILES)	tested on	assay	test system	conditions	scale	measurement	result
O=C(O)CCCN1CC=C(c2ccccc2)CC1	Ubiquitin carboxyl-terminal hydrolase 16, ZnF-UBD domain (USP16, Homo sapiens, UniProt Q9Y5T5)	–	–	–	–	Kd	> 1000 µM
CC[C@H](C)[C@H](NC(=O)[C@H](Cc1ccc(O)cc1)NC(=O)[C@H](CCC(=O)O)NC(=O)[C@H](Cc1c[nH]cn1)NC(=O)CNC(=O)[C@H](CC(=O)O)NC(=O)[C@H](CO)NC(=O)[C@H](CO)NC(=O)[C@@H](NC(=O)c1ccc2c(c1)C(=O)OC21c2ccc(N(C)C)cc2Oc2cc(N(C)C)ccc21)C(C)C)C(=O)N[C@@H](Cc1ccc(OP(=O)(O)O)cc1)C(=O)N[C@H](C(=O)N[C@@H](CC(=O)O)C(=O)N1CCC[C@H]1C(=O)N[C@@H](CCSC)C(=O)N[C@@H](CCC(N)=O)C(=O)N[C@@H](CC(C)C)C(=O)N1CCC[C@H]1C(=O)N[C@@H](CC(=O)O)C(=O)O)C(C)C	RASA1 SH2 domains	binding	–	–	–	Kd	0.244 µM
NC(=O)N/N=C/c1ccc([N+](=O)[O-])o1	Oxygen-insensitive NAD(P)H nitroreductase (nfsB, Escherichia coli K-12, UniProt P38489)	binding	Escherichia coli	–	–	Kd	35 ± 1 µM
C[C@H]1CN(c2n[nH]c3nc(N[C@H]4CC[C@H](NS(=O)(=O)CCC(F)(F)F)CC4)ncc23)CCO1	Nuclear pore complex protein Nup160 (Homo sapiens, UniProt Q12769)	Kinobeads competition, item: NUP160	–	0.16 µM, unit not given	relative to: vehicle	remaining binding	0.96
CSCC[C@H](NC(=O)CNC(=O)[C@H](Cc1ccccc1)NC(=O)[C@H](CC(=O)O)NC(=O)CNC(=O)c1ccc2c(c1)C(=O)OC21c2ccc(N(C)C)cc2Oc2cc(N(C)C)ccc21)C(=O)N[C@@H](CO)C(=O)N[C@@H](CCCNC(=N)N)C(=O)N[C@@H](CC(=O)O)C(=O)N[C@H](C(=O)N[C@@H](Cc1ccc(OP(=O)(O)O)cc1)C(=O)N[C@@H](CO)C(=O)N[C@H](C(=O)N[C@@H](CC(=O)O)C(=O)N[C@@H](Cc1ccc(O)cc1)C(=O)N[C@@H](Cc1ccc(O)cc1)C(=O)N[C@@H](CCCNC(=N)N)C(=O)N[C@H](C(=O)N[C@@H](CC(=O)O)C(=O)O)C(C)C)[C@@H](C)O)C(C)C	STAT1 SH2 domain	binding	–	–	–	Kd	1.11 µM
CC[C@H](C)[C@@H]1NC(=O)[C@H](Cc2ccccc2)NC(=O)[C@H](Cc2ccc(O)cc2)NC(=O)[C@@H]2CCCN2C(=O)[C@H](Cc2ccccc2)NC(=O)[C@H]([C@@H](C)CC)NC(=O)[C@@H]2CCCN2C(=O)[C@H](CC(C)C)NC(=O)[C@H]([C@@H](C)CC)NC(=O)[C@H](CC(C)C)NC(=O)[C@@H](NC(=O)[C@H](CCSC)NC(C)=O)CSSC[C@@H](C(=O)NCC(=O)N[C@@H](CO)C(=O)NCC(=O)N[C@@H](CO)C(=O)N[C@@H](CC(=O)O)C(=O)N[C@@H](Cc2ccc(O)cc2)C(=O)N[C@@H](CCCCN)C(=O)N[C@@H](CC(=O)O)C(=O)N[C@@H](CC(=O)O)C(=O)N[C@@H](CC(=O)O)C(=O)N[C@@H](CC(=O)O)C(=O)N[C@@H](CCCCN)C(N)=O)NC1=O	Gastric inhibitory polypeptide receptor, extracellular domain (GIPR, Homo sapiens, UniProt P48546)	binding, biolayer interferometry	–	crude peptide, single concentration	–	Kd	0.039 µM
CC[C@H](C)[C@H](NC(=O)[C@H](CC(=O)O)NC(=O)[C@H](C)NC(=O)[C@H](Cc1ccc(O)cc1)NC(=O)[C@H](CCCCN)NC(=O)c1ccc2c(c1)C(=O)OC21c2ccc(N(C)C)cc2Oc2cc(N(C)C)ccc21)C(=O)N[C@@H](CCC(=O)O)C(=O)N[C@@H](CO)C(=O)N[C@@H](CO)C(=O)N[C@@H](CC(N)=O)C(=O)N[C@@H](Cc1ccc(OP(=O)(O)O)cc1)C(=O)N[C@@H](CCSC)C(=O)N[C@@H](C)C(=O)N1CCC[C@H]1C(=O)N[C@@H](Cc1ccc(O)cc1)C(=O)N[C@@H](CC(=O)O)C(=O)N[C@@H](CC(N)=O)C(=O)N[C@@H](Cc1ccc(O)cc1)C(=O)N[C@@H](CC(=O)O)C(=O)O	STAT1 SH2 domain	binding	–	–	–	Kd	1.66 µM
COc1cc(Nc2ncc(F)c(Nc3ccc4c(n3)NC(=O)C(C)(C)O4)n2)cc(OC)c1OC	B1 bradykinin receptor (BDKRB1, Homo sapiens, UniProt P46663)	–	–	–	–	IC50	> 10 µM
CC[C@H](C)[C@H](NC(=O)[C@H](Cc1ccccc1)NC(=O)[C@H](CCC(=O)O)NC(=O)[C@H](CCCNC(=N)N)NC(=O)[C@H](C)NC(=O)[C@H](C)NC(=O)[C@H](CCC(N)=O)NC(=O)[C@H](CCC(=O)O)NC(=O)[C@H](CCC(=O)O)NC(=O)[C@H](CC(C)C)NC(=O)[C@H](Cc1ccc(O)cc1)NC(=O)[C@H](CO)NC(=O)[C@H](CO)NC(=O)[C@@H](NC(=O)[C@H](CC(=O)O)NC(=O)[C@H](CO)NC(=O)[C@@H](NC(=O)[C@H](Cc1ccccc1)NC(=O)[C@@H](NC(=O)CNC(=O)[C@H](CCC(=O)O)NC(=O)[C@H](C)NC(=O)CCc1c[nH]cn1)[C@@H](C)O)[C@@H](C)O)C(C)C)C(=O)N[C@@H](C)C(=O)N[C@@H](Cc1c[nH]c2ccccc12)C(=O)N[C@@H](CC(C)C)C(=O)N[C@H](C(=O)N[C@@H](CCCNC(=N)N)C(=O)NCC(=O)N[C@@H](CCCNC(=N)N)C(=O)N[C@@H](CCCCNC(=O)COCCOCCNC(=O)COCCOCCNC(=O)CC[C@H](NC(=O)CCCCCCCCCCCCCCCCC(=O)O)C(=O)O)C(=O)NCC(=O)NCC(=O)N[C@@H](CO)C(=O)N[C@@H](CCCCNc1c(NCCCCCN(O)C(=O)CCC(=O)NCCCCCN(O)C(=O)CCC(=O)NCCCCCN(O)C(C)=O)c(=O)c1=O)C(=O)O)C(C)C [zirconium-89 labelled]	–	gamma counting	rat, stomach-duodenum content	intravenous, 3 nmol/kg, 24 h	–	tissue uptake	0.09 %ID/g
C[C@H]1[C@H](NC(=O)/C(=N\OC(C)(C)C(=O)O)c2csc(N)n2)C(=O)N1S(=O)(=O)O	beta-lactamase CMY-6 (Klebsiella pneumoniae)	binding, surface plasmon resonance	–	–	–	Kd	64.8 µM
O=C1NCc2c1c1c3ccccc3[nH]c1c1[nH]c3ccccc3c21	Cholinesterase (BCHE, Homo sapiens, UniProt P06276)	inhibitor, fluorometric	–	–	–	IC50	10.6 ± 4.32 µM
O=C1c2ccccc2C(=O)c2ccccc21	Reaction center protein M chain, QA site (pufM, Cereibacter sphaeroides, UniProt P0C0Y9)	QA site binding	LDAO detergent solution	pH 7.8, 298 K, added: 1 µM reaction centres	–	Kd	0.2 µM
CO[C@H]1C[C@@H]2CC[C@@H](C)[C@@](O)(O2)C(=O)C(=O)N2CCCC[C@H]2C(=O)O[C@H]([C@H](C)C[C@@H]2CC[C@@H](OC(=O)NCCOCCOCCOCCOCCOCCOCCOCCOCCC(=O)N3CCc4cc(Cn5nc(-c6ccc7oc(N)nc7c6)c6c(N)ncnc65)ccc4C3)[C@H](OC)C2)C[C@@H](O)[C@H](C)/C=C(\C)[C@@H](O)[C@@H](OC)C(=O)[C@H](C)C[C@H](C)/C=C/C=C/C=C/1C	–	–	patients with advanced solid tumours	intravenous, 6 mg weekly, any grade	–	headache incidence	16.7%
CC(C)C[C@H](NC(=O)[C@H](Cc1ccc(OP(=O)(O)O)cc1)NC(=O)[C@H](CCC(=O)O)NC(=O)[C@@H]1CCCN1C(=O)[C@H](CC(N)=O)NC(=O)CNC(=O)[C@@H](NC(=O)[C@H](C)NC(=O)[C@@H](NC(=O)[C@H](CO)NC(=O)[C@H](Cc1c[nH]cn1)NC(=O)c1ccc2c(c1)C(=O)OC21c2ccc(N(C)C)cc2Oc2cc(N(C)C)ccc21)[C@@H](C)O)C(C)C)C(=O)N[C@@H](CC(N)=O)C(=O)N[C@H](C(=O)N[C@H](C(=O)N[C@@H](CCC(N)=O)C(=O)N1CCC[C@H]1C(=O)N[C@H](C(=O)N[C@@H](CC(=O)O)C(=O)O)[C@@H](C)O)C(C)C)[C@@H](C)O	RASA1 SH2 domains	binding	–	–	–	Kd	0.388 µM
CC(C)C[C@H](NC(=O)[C@H](CC(=O)O)NC(=O)[C@H](CO)NC(=O)[C@H](CC(=O)O)NC(=O)[C@H](CO)NC(=O)CNC(=O)[C@H](C)NC(=O)[C@@H](N)Cc1ccc(O)cc1)C(=O)N[C@@H](CC(=O)O)C(=O)N[C@@H](COP(=O)(O)O)C(=O)N[C@@H](CC(=O)O)C(=O)N[C@@H](CC(=O)O)C(=O)N[C@@H](CCC(=O)O)C(=O)N[C@@H](Cc1ccccc1)C(=O)N[C@H](C(=O)N1CCC[C@H]1C(=O)N[C@@H](Cc1ccc(O)cc1)C(=O)O)C(C)C	PIH1 domain-containing protein 1, residues 1-180 (PIH1D1, Homo sapiens, UniProt Q9NWS0)	ITC	–	pH 8.0, 20 °C, added: phosphopeptide	–	Kd	3.1 ± 0.6 µM
Nc1ncnc2c1ncn2[C@@H]1O[C@H](COP(=O)(O)OP(=O)(O)OP(=O)(O)O)[C@@H](O)[C@H]1O	Receptor-like protein kinase FERONIA (FER, Arabidopsis thaliana, UniProt Q9SCZ4)	binding, SPR steady-state	–	kinase domain	–	Kd	18.4 µM
CC[C@H](C)[C@@H]1NC(=O)[C@@H]2CCCN2C(=O)[C@H](CC(C)C)NC(=O)[C@H](CC(C)C)NC(=O)CNC(=O)[C@@H](NC(=O)[C@@H](NC(=O)[C@H](CC(=O)O)NC(=O)CNC(=O)[C@@H](NC(=O)[C@H](C)NC(=O)CNC(=O)[C@H](CCCCN)NC(=O)[C@H](CC(C)C)NC(=O)[C@H](CC(C)C)NC(=O)[C@H](CCCCN)NC(=O)CNC(=O)[C@@H](NC(=O)[C@@H](N)CC(C)C)C(C)C)C(C)C)C(C)C)CSSC[C@@H](C(=O)O)NC1=O	–	RNA-seq, item: Nr4a1	mouse, traumatic brain injury model, frontal cortex and hippocampus	dose not given	relative to: TBI alone	log2 fold change	-1.72
CN1C2CCCC1CC(NC(=O)c1nn(C)c3ccccc13)C2 (stereo not shown)	Soluble acetylcholine receptor (Aplysia californica, UniProt Q8WSF8, D181A/K160T/Q74R/S111E/V159L)	homologous radioligand competition	–	–	–	Kd	0.618 ± 0.034 µM
OC[C@H]1O[C@@H](n2cnc3cncnc32)[C@H](O)[C@@H]1O	Heat shock cognate 71 kDa protein, nucleotide-binding domain (HSPA8, Homo sapiens, UniProt P11142)	binding, SPR	–	nucleotide-binding domain, residues 1-381	–	Kd	> 1000 µM
